Published values pooled from the literature.
Lines come from different studies, so protocols differ. ± marks the error that the study gave.

`O=C(O)CC[C@H](NC(=O)O[C@@H](CCCCNC(=O)c1ccc([18F])cc1)C(=O)O)C(=O)O` gave a tissue uptake of 1.89 ± 1.58 %ID/g (mouse, PC-3 PIP/flu xenografts, small intestine; 30 min).
`CCNc1cc2[o+]c3cc(NCC)c(C)cc3c(-c3ccccc3C(=O)OCCOCC[18F])c2cc1C` has a tissue uptake of 7.9 ± 0.99 %ID/g (rat, kidney; 60 min).
For `N=C(N)NCc1ccc(C(=O)NCCCC[C@H](NC(=O)CCCCCCC(=O)NCCCC[C@H](NC(=O)N[C@@H](CCC(=O)O)C(=O)O)C(=O)O)C(=O)O)cc1[211At]`, the tissue uptake was 87.7 ± 11 %ID/g (SCID mouse, PC-3 xenografts, kidneys; 2 h).
`O=C([O-])C[N+]12CC(=O)[O][Re-2]1[O]P(=O)([O-])C2.[C-]#[O+].[C-]#[O+].[C-]#[O+]` (centres unmarked) — result for “isomer fraction at equilibrium”: 62% (HPLC; aqueous solution; 1 d, pH 8, room temperature).
Under “acetonitrile share for dissolution”, `CC[C@H](C)[C@H](NC(=O)[C@@H](Cc1ccccc1)NC)C(=O)N[C@@H](CO)C(=O)N[C@H](CCC(N)=O)C(=O)N[C@@H](C(=O)N[C@H](C(=O)N[C@@H](CO)C(=O)N[C@H]1C(=O)N[C@@H](C)C(=O)N[C@@H](C2CCCCC2)C(=O)N[C@@H]([C@@H](C)CC)C(=O)O[C@H]1C)[C@@H](C)CC)[C@@H](C)CC` is recorded as roughly 40% (acetonitrile-water; TFA salt).
With `CC(C)[C@H](N)C(=O)N[C@@H](Cc1ccc(O)cc1)C(=O)N[C@@H](CCCCN)C(=O)N[C@H](C(=O)N[C@@H](CCCCN)C(=O)N[C@H](C(=O)N[C@@H](CCCCN)C(=O)N[C@H](C(=O)N[C@@H](CCCCN)C(=O)N[C@H](C(=O)N[C@@H](CCCCN)C(=O)N[C@H](C(=O)N[C@@H](CCCCN)C(=O)N[C@H](C(=O)N[C@@H](CCCCN)C(=O)N[C@H](C(=O)N[C@@H](CCCCN)C(=O)N[C@H](C(=O)O)[C@@H](C)O)C(C)C)[C@@H](C)O)C(C)C)[C@@H](C)O)C(C)C)[C@@H](C)O)C(C)C` the transition onset was 20 % TFE (circular dichroism; PBS; 0.05 mg/mL, shift at 222 nm).
The tissue concentration of `C/C=C/C=C/C/C=C/CCCCCCCc1cccc(O)c1O` is reported as 29500 ± 2930 ng/g (female Kunming mice, tumour-bearing, heart; intravenous, 10 mg/kg, 0.083 h).
For `[11CH3]n1c(=O)n(CCCO)c(=O)c2c1nc(Oc1cccc(OC(F)(F)F)c1)n2Cc1ccc(Cl)cc1`, the tracer uptake was 1.65 ± 0.44 %ID/g (ex vivo biodistribution; Sprague Dawley rat, lung; 5 min post injection).
For `CC[C@H](C)[C@H](NC(=O)[C@H](C)NC(=O)CNC(=O)[C@@H](N)CCSC)C(=O)N[C@@H](C)C(=O)N[C@@H](CCCCN)C(=O)N[C@@H](CC(C)C)C(=O)N[C@H](C(=O)N[C@@H](C)C(=O)N[C@@H](CCCCN)C(=O)N[C@@H](Cc1ccccc1)C(=O)NCC(=O)N[C@@H](Cc1c[nH]c2ccccc12)C(=O)N1CCC[C@H]1C(=O)N[C@@H](Cc1ccccc1)C(=O)N[C@H](C(=O)N[C@@H](CCCCN)C(=O)N[C@@H](CCCCN)C(=O)N[C@@H](Cc1ccccc1)C(=O)N[C@@H](Cc1ccc(O)cc1)C(=O)N[C@@H](CCCCN)C(=O)N[C@@H](CCC(N)=O)C(=O)N[C@H](C(=O)N[C@@H](CCSC)C(=O)N[C@@H](CCC(N)=O)C(=O)N[C@@H](CCCNC(=N)N)C(=O)N[C@H](C(=O)NCC(=O)N[C@@H](CCC(N)=O)C(=O)NCC(=O)N[C@@H](Cc1c[nH]c2ccccc12)C(=O)N[C@H](C(=O)N[C@H](C(=O)N[C@@H](CC(=O)O)C(=O)N[C@@H](CCC(N)=O)C(=O)N[C@H](C(=O)N[C@@H](CCC(=O)O)C(=O)N[C@@H](CCCCN)C(=O)N[C@@H](Cc1c[nH]c2ccccc12)C(=O)N[C@@H](CC(C)C)C(=O)N[C@@H](CCCCN)C(=O)N[C@@H](CCCNC(=N)N)C(=O)N[C@@H](Cc1c[nH]cn1)C(=O)O)[C@@H](C)CC)[C@@H](C)CC)[C@@H](C)O)[C@@H](C)CC)[C@@H](C)CC)[C@@H](C)CC)C(C)C`, the Tm was 49.1 ± 0.4 °C (thermal unfolding, far-UV CD; 10 mM sodium phosphate; 5-20 µM, pH 7.2).
`CN(C)C(CNC(=O)Nc1cc(C(F)(F)F)ccc1N1CCOCC1)c1ccncc1` (centres unmarked) has a serum osmolarity of 310 mmol/L (mouse, serum; intraperitoneal, 240 mg/kg single dose).
For `CC(=O)NCC(=O)N[C@@H](CO)C(=O)N[C@@H](CCCCNP(=O)(O)O)C(=O)NCC(=O)NCC(N)=O`, the initial velocity was 3.09e-09 M/s (non-enzymatic hydrolysis; 100 µM, pH 7.8, no enzyme).
`O=NN(O)NCCS(=O)(=O)O` — result for “HNO release half-life”: 3.52 h (phosphate-buffered saline; pH 7.4, 37 °C).
`CC(C)C[C@H](NC(=O)[C@H](CCCCN)NC(=O)[C@H](CCC(=O)O)NC(=O)[C@H](C)NC(=O)[C@@H](NC(=O)[C@H](CCCCN)NC(=O)[C@H](CC(=O)O)NC(=O)[C@H](Cc1ccc(O)cc1)NC(=O)[C@H](Cc1ccccc1)NC(=O)[C@H](C)NC(=O)[C@H](CCCCN)NC(=O)[C@H](CC(C)C)NC(=O)[C@H](Cc1c[nH]c2ccccc12)NC(=O)[C@@H](N)CC(=O)O)C(C)C)C(=O)N[C@@H](CCCCN)C(=O)N[C@@H](CCC(=O)O)C(=O)N[C@@H](C)C(=O)N[C@@H](Cc1ccccc1)C(=O)N1CCC[C@H]1C(=O)N[C@@H](CC(=O)O)C(=O)N[C@@H](Cc1c[nH]c2ccccc12)C(=O)N[C@@H](C)C(=O)N[C@@H](CCCCN)C(=O)N[C@@H](C)C(=O)N[C@@H](C)C(=O)N[C@@H](Cc1ccc(O)cc1)C(=O)N[C@@H](CC(=O)O)C(=O)N[C@@H](CCCCN)C(=O)N[C@@H](C)C(=O)N[C@@H](C)C(=O)N[C@@H](CCC(=O)O)C(=O)N[C@@H](CCCCN)C(=O)N[C@@H](C)C(=O)N[C@@H](CCCCN)C(=O)N[C@@H](CCC(=O)O)C(=O)N[C@@H](C)C(=O)N[C@@H](C)C(=O)O` gave an AUC(0-last) of 540 µg·h/mL (cynomolgus monkey female, plasma; intravenous infusion, 8 mg/kg every other day, day 27).
`C[C@@H](O)[C@H](NC(=O)[C@@H]1CCCN1C(=O)CNC(=O)[C@@H]1CC(=O)NCC(=O)N[C@H]2Cc3cn(c4ccccc34)-c3cc(ccc3O)C[C@H](NC2=O)C(=O)NCC(=O)N[C@@H](CO)C(=O)N[C@@H](CCC(N)=O)C(=O)N[C@@H](Cc2c[nH]c3ccccc23)C(=O)N1)C(=O)NCC(=O)N[C@@H](CCC(N)=O)C(=O)N[C@@H](CCCNC(=N)N)C(=O)N[C@@H](CC(=O)O)C(=O)O` — result for thermal stability: “no effect” (HPLC-MS; water; 95 °C).
`COc1ccc(F)cc1S(=O)(=O)Nc1cnc2c(c1)C(=O)NCCO2` has an unbound fraction of 0.27 to 0.283 (ultracentrifugation; mouse plasma).
The Vd of `CSCC[C@H](NC(=O)CNC(=O)[C@H](CC(=O)O)NC(=O)[C@@H](NC(=O)[C@@H](NC(=O)[C@@H](NC(=O)CNC(=O)[C@H](CCC(N)=O)NC(=O)[C@H](CCSC)NC(=O)[C@H](CC(=O)O)NC(=O)[C@H](C)NC(=O)[C@H](C)NC(=O)[C@@H](NC(=O)[C@H](CO)NC(=O)[C@@H](N)CC(C)C)[C@@H](C)O)C(C)C)C(C)C)[C@@H](C)O)C(=O)N[C@@H](C)C(=O)N[C@@H](CO)C(=O)NCC(=O)N[C@@H](CC(C)C)C(=O)N[C@@H](CC(=O)O)C(=O)N[C@@H](CCCCN)C(=O)N[C@@H](CC(=O)O)C(=O)N[C@@H](Cc1ccc(O)cc1)C(=O)N[C@@H](CC(C)C)C(=O)N[C@@H](CCCCN)C(=O)N1CCC[C@H]1C(=O)N[C@@H](CC(=O)O)C(=O)N[C@@H](CC(=O)O)C(=O)O` is reported as 0.529 L/kg (human, serum; intravenous, 2.5 mg/kg, patients, infusion).
For `CC[C@H](C)C(=O)N1CCC(NC(=O)Nc2ccc(OC(F)(F)F)c(F)c2)CC1`, “subjects with insomnia TEAE” read 0% (healthy volunteers; oral, 0.5 mg single dose).
For `CC(C)[C@H](NC(=O)CNC(=O)[C@H](CCC(N)=O)NC(=O)[C@H](C)N)C(=O)O`, “subjects with severe AE” read 0% (healthy male volunteers; intravenous, 15 mg/kg/h, 2 h, with: LPS 2 ng/kg).
`CC(C)[C@H](NC(=O)CNC(=O)[C@H](CCC(N)=O)NC(=O)[C@H](C)N)C(=O)O`: “subjects with adverse events” 16.7% (unlikely related or unrelated; human; 15 mg/kg/h, 2 h, continuous infusion).
For `CN(C)c1ccc(C(=O)NCCCCN2CCN(c3ccccc3O[11CH3])CC2)cc1`, the brain uptake was 0.107 ± 0.001 %ID/g (male Sprague Dawley rat, brain; intravenous, 30 min).
For `CC[C@H](C)[C@H](NC(=O)[C@H](CCC(=O)O)NC(=O)[C@H](CCC(=O)O)NC(=O)[C@H](Cc1ccccc1)NC(=O)[C@H](CC(=O)O)NC(=O)CNC(=O)[C@H](CC(N)=O)NC(=O)CNC(=O)CNC(=O)CNC(=O)CNC(=O)[C@@H]1CCCN1C(=O)[C@H](CCCNC(=N)N)NC(=O)[C@@H]1CCCN1C(=O)[C@H](N)Cc1ccccc1)C(=O)N1CCC[C@H]1C(=O)N[C@@H](CCC(=O)O)C(=O)N[C@@H](CCC(=O)O)C(=O)N[C@@H](Cc1ccc(O)cc1)C(=O)N[C@@H](CC(C)C)C(=O)O`, the concentration was 0.0297 ± 0.0013 µg/mL (LC-MS/MS; human plasma; -20 to 25 °C, three freeze-thaw cycles, nominal 30.0 ng/mL).
For `CC(=O)CCN1CCN(C(=O)CC2N=C(c3ccc(Cl)cc3)c3c(sc(C)c3C)-n3c(C)nnc32)CC1` (centres unmarked), the pKa was 6.47 ± 0.02 (experimental).
`CC(CCC(=O)NCC(=O)O)C1CCC2C3CCC4CC(OC5OC(C(=O)O)C(O)C(O)C5O)CCC4(C)C3CC(O)C12C` (centres unmarked) — result for “glucuronide to parent ratio”: 0.848 (human, T/C genotype, plasma; dose not given, geometric mean, sex-adjusted).
